Published values gathered from unrelated publications.
Lines come from different studies, so protocols differ. “And” joins repeats or separate records; there may be more than shown. ± marks the error that the study gave.

SMILES	test system	setting	scale	AUC(0-t)
Cc1nccn1CC1CCc2c(c3ccccc3n2C)C1=O (stereo not shown)	male Sprague Dawley rat, plasma	iv bolus, 5 mg/kg, added: tariquidar 15 mg/kg iv, 1 h before	–	2680 ng·h/mL
CSc1ccccc1C(=O)NCCn1cc(C(=O)NCc2cccc(C)n2)c(=O)c2cc3c(cc21)OC(F)(F)O3	Sprague-Dawley rat, male, whole blood	intramuscular, 30 mg/kg of parent compound	–	98.4 ± 33.2 ng·h/mL
CC(C)c1nc(N(C)S(C)(=O)=O)nc(-c2ccc(F)cc2)c1/C=C/[C@@H](O)C[C@@H](O)CC(=O)O	rat, Wistar albino, plasma	oral, 20 mg/kg	–	10100 ng·h/mL
CN1CCC[C@H](CN2c3ccccc3Sc3ccccc32)C1.Cl	Wistar rat female, skin	oral, 16 mg/kg	–	19600 ng·h/mL
CNCc1cc(-c2ccccc2F)n(S(=O)(=O)c2cccnc2)c1	rat Sprague-Dawley male, plasma	oral, 10 mg/kg	–	275 ng·h/mL
Cc1cccc(CNC(=O)c2cn(CCNC(=O)c3ccccc3Sc3c([N+](=O)[O-])ncn3C)c3cc4c(cc3c2=O)OC(F)(F)O4)n1	Sprague-Dawley rat, male, plasma	intravenous, 20 mg/kg of parent drug	–	1640 ± 60.6 ng·h/mL
O=C1c2ccncc2C(=O)c2c1[nH]c1ccccc21	Sprague-Dawley rat male, plasma	intravenous, 1 mg/kg	–	0.552 ± 0.223 µM·h
Nc1nc(O)c2ncn(COC(CO)CO)c2n1	Sprague-Dawley rat male	oral, 10 mg/kg	–	520 ± 82.5 ng·h/mL
CCc1c(-c2ccccc2)c(-c2ccccc2)nn1-c1ccccc1-c1cccc(OCC(=O)O)c1	Sprague-Dawley rat	oral, dose not given	–	5820 ng·h/mL and 4940 ng·h/mL
CC[C@@H]([C@H](C)O)n1ncn(-c2ccc(N3CCN(c4ccc(OC[C@@H]5CO[C@@](Cn6cncn6)(c6ccc(F)cc6F)C5)cc4)CC3)cc2)c1=O	Sprague-Dawley rats, plasma	oral, 40 mg/kg, added: zanubrutinib 16 mg/kg	–	21700 ± 7110 ng·h/mL
COc1cccc(-c2n[nH]c(SCc3ccccn3)n2)c1OC	Sprague-Dawley rats, male, plasma	intravenous, 1.0 mg/kg, single dose	–	2790 ng·h/mL
CCc1c2c(nc3ccc(OC(=O)N4CCC(N5CCCCC5)CC4)cc13)-c1cc3c(c(=O)n1C2)COC(=O)[C@]3(O)CC	Sprague-Dawley rats, plasma	iv, 10 mg/kg	–	4.11 ± 1.21 µM·h
Cc1ccc(S(=O)(=O)n2cc3c4c2C(=O)C(NCc2ccc(Cl)cc2)=CC4=NCC3)cc1	Sprague-Dawley rat, plasma	intravenous, 5 mg/kg, individual rat	–	1870 ng·h/mL and 696 ng·h/mL and 1580 ng·h/mL
C=CC(=O)N1CCC(Oc2cc3c(Nc4ccc(Cl)c(Cl)c4F)ncnc3cc2OC)CC1	male Sprague-Dawley rats, plasma	oral, 2 mg/kg, added: schisandrin A pretreatment 20 mg/kg daily 1 week	–	6780 ± 895 ng·h/mL
Cc1cccc(CNC(=O)c2cn(CCNC(=O)c3ccccc3S)c3cc4c(cc3c2=O)OC(F)(F)O4)n1	Sprague-Dawley rat, male, whole blood	intravenous, 5 mg/kg of parent compound	–	3040 ± 350 ng·h/mL
C1=C/COCc2cc(ccc2OCCN2CCCC2)Nc2nccc(n2)-c2cccc(c2)COC/1	Sprague-Dawley rats, male, plasma	oral, dose not given, added: isavuconazole	reference: isavuconazole alone	2.5 fold increase
